Published values from different studies.
Each line is one published result; not all experiments were run side by side. Numbers after ± are the reported error.

Under “AUC of endoxifen”, `CC/C(=C(/c1ccc(OCCNC)cc1)c1ccc(B2OC(C)(C)C(C)(C)O2)cc1)c1ccccc1` is recorded as 80 fold (C57BL/6 mouse; oral, 1 mg/kg; relative to: endoxifen).
`COc1ccc2c3c([nH]c2c1)[C@H](CC(C)C)N1C(=O)[C@H](CC(=O)NC(C)C)NC(=O)[C@@H]1C3` has an AUC of 147 µM·h (wild-type male mouse, serum; oral, 100 mg/kg).
With `COc1ccc(Cl)cc1S(=O)(=O)Nc1cncc(C(N)=O)c1` the AUC was > 800000 ng·h/mL (mouse, plasma; oral, 10 mg/kg).
For `COc1cc2c3c(n(CCCNC(C)C)c(=O)c2cc1OC)-c1nc2c(cc1C3=O)OCO2`, the AUC extrapolated was 14.8% (male CD1 mouse, plasma; intravenous, 1 mg/kg).
With `CCc1cc(OC)c2nccc(N3CCc4c(cc(Cn5ccnc5)cc4-c4cn(C)nc4C(F)(F)F)C3=O)c2c1` the AUC extrapolated was 1.7% (CD-1 mouse, male, plasma; oral, 50 mg/kg).
`COc1ccc2c3c([nH]c2c1)[C@H](CC(C)C)N1C(=O)[C@H](CCC(=O)NC(C)(C)C)NC(=O)[C@@H]1C3` — result for AUC: “increased” (UPLC-QTOFMS; wild-type mouse, serum; oral, 50 mg/kg).
For `Cc1ccc2cncc(N3CCc4c(cc(Cn5ccnc5)cc4-c4cn(C)nc4C(F)(F)F)C3=O)c2c1`, the AUC extrapolated was 0.8% (CD-1 mouse, male, plasma; intravenous, 3 mg/kg).
The AUC extrapolated of `COc1cc2c3c(n(CCCNCCO)c(=O)c2cc1OC)-c1nc2c(cc1C3=O)OCO2` is reported as 37.3% (male CD1 mouse, plasma; oral, 10 mg/kg).
For `CN(C)C(=O)c1cc2cnc(Nc3ccc(-c4ccc5c(=O)cc(N6CCOCC6)oc5c4)cc3)nc2n1C1CCCC1`, the AUC extrapolated was 0.5 ± 0.2% (BALB/c mouse, plasma; oral, 20 mg/kg).
`CNC(=O)c1cc(OC)cc2c(N3CCc4c(cc(Cn5ccnc5)cc4-c4cn(C)nc4C(F)(F)F)C3=O)ccnc12` gave an AUC extrapolated of 0.3% (CD-1 mouse, male, plasma; oral, 50 mg/kg).
`CCNCCCn1c2c(c3cc(OC)c(OC)cc3c1=O)C(=O)c1cc3c(nc1-2)OCO3` has an AUC extrapolated of 8.81% (male CD1 mouse, plasma; oral, 10 mg/kg).
`CCc1cc(C(=O)NC)c2nccc(N3CCc4c(cc(Cn5ccnc5)cc4-c4cn(C)nc4C(F)(F)F)C3=O)c2c1` has an AUC extrapolated of 0% (CD-1 mouse, male, plasma; oral, 150 mg/kg).
For `CO[C@H]1/C=C/O[C@@]2(C)Oc3c(C)c(O)c4c(c3C2=O)C2=NC3(CCN(CC(C)C)CC3)NC2=C(NC(=O)/C(C)=C\C=C\[C@H](C)[C@H](O)[C@@H](C)[C@@H](O)[C@@H](C)[C@H](OC(C)=O)[C@@H]1C)C4=O`, the AUC was 21500 ng·h/mL (CD-1 mouse, plasma; oral, 12.5 mg/kg, efficacy dose).

Excerpt of the above:
For `Cc1ccc2cncc(N3CCc4c(cc(Cn5ccnc5)cc4-c4cn(C)nc4C(F)(F)F)C3=O)c2c1`, the AUC extrapolated was 0.8% (CD-1 mouse, male, plasma; intravenous, 3 mg/kg).
